{"data": "Measurements of several laboratories", "note": "Each numbered part is a random draw from the data of one study; scales do not carry over between parts."}
{"data": "Set 1", "target": "Sal-like protein 4, full length isoform A (SALL4, Homo sapiens, UniProt Q9UJQ4, residues 1-1053)", "technique": "universal PBM", "form": "double-stranded DNA, one strand shown", "sample": "in vitro", "tested at": "600 nM", "notes": "8-mer, flanks averaged, mean of replicates", "reading": "higher = stronger binding", "UniProt Q9UJQ4, sequence (whole entry, looked up)": "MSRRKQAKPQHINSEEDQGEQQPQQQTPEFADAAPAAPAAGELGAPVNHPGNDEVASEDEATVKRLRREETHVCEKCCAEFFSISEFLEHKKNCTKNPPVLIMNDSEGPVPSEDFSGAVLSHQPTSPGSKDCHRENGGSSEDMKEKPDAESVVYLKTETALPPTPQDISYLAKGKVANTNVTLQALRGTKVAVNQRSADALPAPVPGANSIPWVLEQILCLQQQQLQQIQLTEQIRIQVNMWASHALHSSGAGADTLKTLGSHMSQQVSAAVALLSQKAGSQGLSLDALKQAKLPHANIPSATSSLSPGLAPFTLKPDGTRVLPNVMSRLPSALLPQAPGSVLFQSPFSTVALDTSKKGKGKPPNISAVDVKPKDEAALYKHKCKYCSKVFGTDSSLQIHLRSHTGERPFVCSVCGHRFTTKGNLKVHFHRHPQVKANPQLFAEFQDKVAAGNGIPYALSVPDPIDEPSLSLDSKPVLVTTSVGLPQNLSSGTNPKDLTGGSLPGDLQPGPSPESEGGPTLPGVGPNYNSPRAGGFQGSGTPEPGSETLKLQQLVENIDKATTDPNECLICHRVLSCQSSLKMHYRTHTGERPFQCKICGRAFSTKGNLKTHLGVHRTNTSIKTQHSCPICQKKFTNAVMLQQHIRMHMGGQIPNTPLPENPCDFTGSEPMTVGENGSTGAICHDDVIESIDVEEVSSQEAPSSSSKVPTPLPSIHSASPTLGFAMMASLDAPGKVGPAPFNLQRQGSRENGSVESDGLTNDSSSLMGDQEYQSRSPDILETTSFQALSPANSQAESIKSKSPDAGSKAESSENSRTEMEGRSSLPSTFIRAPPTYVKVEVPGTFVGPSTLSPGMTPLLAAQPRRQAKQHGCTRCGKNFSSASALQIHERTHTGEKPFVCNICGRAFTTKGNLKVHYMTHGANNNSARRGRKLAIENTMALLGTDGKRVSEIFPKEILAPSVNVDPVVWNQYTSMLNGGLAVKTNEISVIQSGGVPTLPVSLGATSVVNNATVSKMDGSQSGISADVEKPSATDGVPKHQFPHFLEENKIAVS"}
{"Strand": "CGCTGAAA", "E-score": -0.0203}
{"Strand": "GTAGCTTA", "E-score": 0.166}
{"Strand": "ACTGTTGC", "E-score": -0.0682}
{"Strand": "TCCACGGA", "E-score": 0.0794}
{"Strand": "ACTCTCAG", "E-score": 0.00166}
{"Strand": "GATCTTTA", "E-score": 0.188}
{"Strand": "CGTGAGCA", "E-score": -0.259}
{"Strand": "CCGAATGC", "E-score": -0.248}
{"Strand": "AACTCGGA", "E-score": -0.062}
{"data": "Set 2", "target": "Interferon regulatory factor 5, full length, phosphomimetic (IRF5, Homo sapiens, UniProt Q13568-2, residues 1-514, K96S/S451D/S453D/S456D/S462D)", "technique": "protein-binding microarray", "form": "double-stranded DNA, one strand shown", "sample": "in vitro", "tested at": "250 nM", "notes": "60-bp whole probe", "together with": "salmon DNA 0.4 mg/ml", "relative to": "random background probes", "reading": "higher = stronger binding", "shared flanks, not repeated": "GCCTAGCAC … GTCTTGATTCGCTTGACGCTGCTG"}
{"Strand": "TTAGGTATCGGCTTCGGTTAGTGCTAG", "log fluorescence [z-score]": 3.84}
{"Strand": "GTCGATATCGGGTTTCGAGACGTGCTA", "log fluorescence [z-score]": 5.08}
{"Strand": "GACGATTCCAGTTTCGTGACGTGCTAG", "log fluorescence [z-score]": 2.38}
{"Strand": "GACGGACTGGGTTTAGGGACGTGCTAG", "log fluorescence [z-score]": -0.573}
{"Strand": "GACGGTTGCGGTTTCGGGACGTGCTAG", "log fluorescence [z-score]": 3.18}
{"Strand": "GACGGACTGGACTTGCGGGACGTGCTA", "log fluorescence [z-score]": -0.262}
{"Strand": "TCAACATTGTGCAATCTTACTGTGCTA", "log fluorescence [z-score]": 0.461}
{"Strand": "TCAGTTGTGATTCTTTCACTGTGCTAG", "log fluorescence [z-score]": 1.72}
{"Strand": "TTAGGTTTCGGTTTCGGTTAGTGCTAG", "log fluorescence [z-score]": 11.5}
{"Strand": "CTTTAACTCATTCTCTGCTTGTGCTAG", "log fluorescence [z-score]": 0.623}
{"data": "Set 3", "target": "Histone acetyltransferase KAT6A, winged helix 1, GST fusion (KAT6A, Homo sapiens, UniProt Q92794, residues 1-85)", "technique": "protein binding microarray", "form": "double-stranded DNA, one strand shown", "sample": "in vitro", "tested at": "not given", "notes": "8-mer, flanks averaged, mean of 2 arrays, mostly near background", "relative to": "not given", "reading": "higher = stronger binding", "Residues (chain)": "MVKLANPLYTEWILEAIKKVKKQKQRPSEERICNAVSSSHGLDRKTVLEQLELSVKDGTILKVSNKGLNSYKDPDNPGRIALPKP"}
{"Strand": "CGAGCTCA", "E-score": 0.0113}
{"Strand": "GGCCCGAA", "E-score": 0.156}
{"Strand": "ATTTTTAC", "E-score": -0.104}
{"Strand": "ACGAATTC", "E-score": -0.183}
{"Strand": "ACTAGGGG", "E-score": -0.0654}
{"Strand": "AATGTCAG", "E-score": -0.147}
{"Strand": "AGTGGAAG", "E-score": -0.0152}
{"Strand": "AATCCCGG", "E-score": 0.23}
{"Strand": "AACCCCTC", "E-score": -0.152}
{"Strand": "ACCAGCGG", "E-score": 0.282}
{"data": "Single results of other studies"}
{"Substance": "PhoQ, residues 284 288 289 292 302 303 SSTLLI", "target": "PhoP, residues 12 14 15 18 19 MHTVL (Escherichia coli, UniProt P23836)", "assay": "Sort-seq, item: YFP reporter", "test system": "E. coli", "setting": "PhoQ-PhoP variant library, together with: 10 µM Mg2+", "scale": "relative to: high Mg2+ state, higher = stronger signaling", "quantity": "fold induction", "result": 12.7}
{"note": "For quick reference, copied from above (set 3):"}
{"Strand": "GGCCCGAA", "E-score": 0.156}
{"Strand": "ATTTTTAC", "E-score": -0.104}
{"Strand": "ACGAATTC", "E-score": -0.183}
{"Strand": "ACTAGGGG", "E-score": -0.0654}
{"Strand": "AATGTCAG", "E-score": -0.147}
